{"data": "Measured values from different studies", "organism": "HIV-1", "note": "Each line is one published result; not all experiments were run side by side. ± gives the spread as reported."}
{"Structure (SMILES)": "c1cc(CN2CCCNCCNCCCNCC2)ccc1CN1CCCNCCNCCCNCC1", "assay": "viral replication", "system": "MT-4, NL4.3", "measurement": "EC50", "result": "5.35 ng/mL"}
{"Structure (SMILES)": "N#C/C=C/c1ccc2c(S(=O)(=O)n3nc(Nc4ccc(C#N)c(Cl)c4)nc3N)cccc2c1", "assay": "viral replication", "system": "TZM-bl, A17 K103N/Y181C", "conditions": "48 h", "measurement": "EC50", "result": "8.58 ± 1.09 nM"}
{"Structure (SMILES)": "CC(C)CN(C[C@@H](O)[C@H](Cc1ccccc1)NC(=O)O[C@H]1CO[C@H]2OCC[C@H]21)S(=O)(=O)c1ccc(N)cc1", "assay": "viral replication", "system": "MT2", "measurement": "EC50", "result": "4 nM"}
{"Structure (SMILES)": "O=c1c2ccccc2sn1-c1ccc(F)c(F)c1", "assay": "viral replication", "conditions": "3 µM", "measurement": "inhibition", "result": "> 60%"}
{"Structure (SMILES)": "C=C(C)[C@]12C[C@@H](C)[C@@]34OC(c5ccccc5)(O[C@@H]1[C@@H]3[C@H](O)[C@](O)(COC(=O)c1ccccc1)[C@@H](O)[C@@]1(O)[C@H]4C[C@H](C)[C@@H]1O)O2", "assay": "viral replication, luciferase reporter", "system": "MT-4, NL4-3 Nanoluc-sec", "measurement": "EC50", "result": "134 ± 19.2 nM"}
{"Structure (SMILES)": "Cn1c(Cn2ccc(C(F)(F)F)c(Oc3cc(Cl)cc(C#N)c3)c2=O)n[nH]c1=O", "assay": "MTT", "system": "MT4, RT L100I/V179D/Y181C mutant", "scale": "baseline: mutant EC50 over IIIB EC50", "measurement": "resistance fold", "result": 13}
{"Structure (SMILES)": "Cc1ccc(-n2sc3ccccc3c2=O)cc1", "system": "TZM-bl", "conditions": "48 h", "measurement": "IC50", "result": "1100 nM"}
{"Structure (SMILES)": "CN(C)C(=O)CCOc1ccccc1Oc1cccc2cc(C#N)ccc12", "assay": "viral cytopathic effect", "system": "MT-2, IIIB", "measurement": "EC50", "result": "2.7 ± 20 nM"}
{"Structure (SMILES)": "COCCN1C(=O)/C(=C\\NNC(=O)c2cc(Cl)ccc2O)C(=O)NC1=S", "assay": "viral replication", "system": "MT4, IIIB", "measurement": "EC50", "result": "> 40000 nM"}
{"Structure (SMILES)": "Cc1ccc(-n2sc3ccccc3c2=O)cc1S(=O)(=O)N1CCCC1", "assay": "viral replication", "conditions": "3 µM", "measurement": "inhibition", "result": "> 50%"}
{"Structure (SMILES)": "C=CC(=O)N(C)CCOc1ccccc1Oc1cccc2cc(C#N)ccc12", "assay": "viral cytopathic effect", "system": "MT-2, IIIB", "measurement": "EC50", "result": "1.2 ± 0.4 nM"}
{"Structure (SMILES)": "COc1cc(-n2sc3ccccc3c2=O)ccc1F", "assay": "viral replication", "conditions": "3 µM", "measurement": "inhibition", "result": "> 60%"}
{"Structure (SMILES)": "Nc1ccn([C@H]2CC[C@@H](CO)O2)c(=O)n1", "assay": "MTT", "system": "MT4, RT A98G/V106I/V179D/Y181C/G333E mutant", "scale": "baseline: mutant EC50 over IIIB EC50", "measurement": "resistance fold", "result": 1}
{"Structure (SMILES)": "O=C(c1cc(-n2sc3ncccc3c2=O)ccc1Cl)N1CCOCC1", "assay": "viral replication", "measurement": "IC50", "result": "320 nM"}
{"Structure (SMILES)": "CC(C)CN(C[C@@H](O)[C@H](Cc1cc(F)cc(F)c1)NC(=O)O[C@@H]1C[C@H]2C[C@@H]3[C@@H](OC[C@@H]31)O2)S(=O)(=O)c1ccc2nc(NC3CC3)sc2c1", "assay": "viral replication", "measurement": "IC50", "result": "1.7 ± 1.6 nM"}
{"Structure (SMILES)": "Cc1cc(C#N)cc(C)c1Oc1nc(Nc2ccc(C#N)cc2)nc(N)c1Br", "assay": "MTT", "system": "MT4, RT L100I/V179D/Y181C mutant", "scale": "baseline: mutant EC50 over IIIB EC50", "measurement": "resistance fold", "result": 41}
{"Structure (SMILES)": "O=C(c1ccc(OS(=O)(=O)F)cc1O)c1ccc(OS(=O)(=O)F)cc1O", "assay": "infectivity of produced virus", "system": "NL4-3 ΔEnv-GFP VSV-G pseudotyped", "measurement": "EC50", "result": "5700 ± 2500 nM"}
{"Structure (SMILES)": "Cc1ccnc2c1NC(=O)c1cccnc1N2C1CC1", "assay": "MTT", "system": "MT4, RT A98G/V106I/V179D/Y181C/G333E mutant", "scale": "baseline: mutant EC50 over IIIB EC50", "measurement": "resistance fold", "result": "> 106"}
{"Structure (SMILES)": "Cc1c(O)cccc1C(=O)N[C@@H](CSc1ccccc1)[C@H](O)CN1C[C@H]2CCCC[C@H]2C[C@H]1C(=O)NC(C)(C)C", "assay": "viral infection", "measurement": "EC50", "result": "> 20000 nM"}
{"Structure (SMILES)": "O=c1c2ccccc2sn1Cc1ccc(Cl)cc1", "assay": "viral replication", "measurement": "IC50", "result": "17300 nM"}
{"Structure (SMILES)": "Nc1ccn([C@@H]2CS[C@H](CO)O2)c(=O)n1", "assay": "MTT", "system": "MT4, RT A98G/V106I/V179D/Y181C/G333E mutant", "scale": "baseline: mutant EC50 over IIIB EC50", "measurement": "resistance fold", "result": 1.9}
{"Structure (SMILES)": "COC(=O)N[C@H](C(=O)N[C@@H](Cc1ccccc1)[C@@H](O)CN(Cc1ccc(-c2ccccn2)cc1)NC(=O)[C@@H](NC(=O)OC)C(C)(C)C)C(C)(C)C", "assay": "viral replication", "system": "MT-4", "measurement": "IC50", "result": "4 ± 0.7 nM"}
{"note": "Some of these lines once more:"}
{"Structure (SMILES)": "C=CC(=O)N(C)CCOc1ccccc1Oc1cccc2cc(C#N)ccc12", "assay": "viral cytopathic effect", "system": "MT-2, IIIB", "measurement": "EC50", "result": "1.2 ± 0.4 nM"}
{"Structure (SMILES)": "COc1cc(-n2sc3ccccc3c2=O)ccc1F", "assay": "viral replication", "conditions": "3 µM", "measurement": "inhibition", "result": "> 60%"}
{"Structure (SMILES)": "Nc1ccn([C@H]2CC[C@@H](CO)O2)c(=O)n1", "assay": "MTT", "system": "MT4, RT A98G/V106I/V179D/Y181C/G333E mutant", "scale": "baseline: mutant EC50 over IIIB EC50", "measurement": "resistance fold", "result": 1}
